# Measurements from different studies.
# Compare with care: the assays were run in different laboratories. Numbers after ± are the reported error.
# TDP1: Tyrosyl-DNA phosphodiesterase 1 (TDP1, Homo sapiens, UniProt Q9NUW8)
# Sequence of UniProt Q9NUW8 (whole entry, looked up): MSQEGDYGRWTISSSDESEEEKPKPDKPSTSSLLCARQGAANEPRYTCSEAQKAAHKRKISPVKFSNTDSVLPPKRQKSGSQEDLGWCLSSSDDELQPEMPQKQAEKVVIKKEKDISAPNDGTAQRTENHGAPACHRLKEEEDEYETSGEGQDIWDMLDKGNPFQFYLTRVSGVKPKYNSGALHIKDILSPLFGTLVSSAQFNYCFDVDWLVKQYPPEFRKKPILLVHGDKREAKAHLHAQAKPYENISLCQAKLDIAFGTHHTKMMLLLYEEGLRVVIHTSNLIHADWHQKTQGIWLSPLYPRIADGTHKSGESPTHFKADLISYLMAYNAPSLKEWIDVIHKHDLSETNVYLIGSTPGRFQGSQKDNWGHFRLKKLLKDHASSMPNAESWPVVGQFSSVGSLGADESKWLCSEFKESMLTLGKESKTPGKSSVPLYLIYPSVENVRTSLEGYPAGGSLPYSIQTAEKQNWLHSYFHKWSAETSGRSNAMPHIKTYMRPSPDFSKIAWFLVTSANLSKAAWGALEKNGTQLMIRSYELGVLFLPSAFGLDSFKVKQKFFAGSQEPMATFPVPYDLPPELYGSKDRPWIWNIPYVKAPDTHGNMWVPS
SMILES,tested on,assay,system,setting,how to read,quantity,result
CNS(=O)(=O)Nc1nccc(Cc2c(C)c3ccc(Oc4ncccc4F)cc3oc2=O)c1F,8505C,cell viability,,7 days,,IC50,> 1000 nM
Nc1ncc(-c2cc(-c3cnn(CC(F)(F)F)c3)ncc2F)nc1C(=O)NC1CNCC(F)C1 (stereo not shown),ABL1-nonphosphorylated,KINOMEscan competition binding,,1 µM,relative to: DMSO control,remaining binding,100%
COCC1CN(C2CCN(c3cc(OC)c(Nc4ncc(Br)c(Nc5ccc6c(c5P(C)(C)=O)OCCO6)n4)cc3C)CC2)C1,,RECIST 1.1,advanced EGFR-mutant NSCLC patients,10 mg once daily,,objective response rate,0%
CC(C)OC(=O)[C@H](CO)NCc1cc(Cl)c(OCc2cccc(-c3ccccc3)c2Br)cc1OCc1cccnc1,,,"hPD-L1 MC-38 tumour, humanised hPD-1 C57BL/6 mouse","oral, 2.5 mg/kg × 21, day 1, baseline",,tumour volume,116 ± 18.1 mm³
COc1ccccc1C=CC(=O)Nc1ccc(-c2ccc(NC(=O)C=Cc3ccccc3OC)cc2)cc1,,carrageenan paw oedema,albino rat,"oral, 50 mg/kg, 3 h",relative to: vehicle,inhibition,29.2%
CN1CCC[C@]1(C)/C=C/S(=O)(=O)NC(=O)Nc1c2c(cc3c1CCC3)CCC2,,,"human, whole blood ex vivo","100 mg twice daily, day 14, 12 h, multiple ascending dose, added: LPS and ATP",,IL-1β inhibition,99.7%
CC(C)(C)NCC(SS(=O)(=O)O)c1ccccc1 (stereo not shown),,,"Swiss Webster mice, Schistosoma mansoni-infected","200 mg/kg single dose on day 42 post-infection, perfusion day 56 post-infection",relative to: vehicle,spleen weight decrease,35%
COc1cc(O)ccc1CCC(c1ccc(O)cc1)c1cc2c(c(C)c1O)OC(c1ccc(O)cc1)CC2 (mixture of isomers),,,human blood,"3 µM, added: A23187",,15-HETE level,190 ± 44 pg/mL
CC(C)C[C@H](NC(=O)CNC(=O)[C@H](CCC(N)=O)NC(=O)[C@H](CC(C)C)NC(=O)[C@H](CC(C)C)NC(=O)[C@H](CCCNC(=N)N)NC(=O)[C@H](CCC(N)=O)NC(=O)[C@H](CC(C)C)NC(=O)[C@H](CCCNC(=N)N)NC(=O)[C@H](C)NC(=O)CNC(=O)[C@H](CCC(=O)O)NC(=O)[C@H](CCCNC(=N)N)NC(=O)[C@H](CC(C)C)NC(=O)[C@H](CCCNC(=N)N)NC(=O)[C@H](CO)NC(=O)[C@H](CC(C)C)NC(=O)[C@H](CCC(=O)O)NC(=O)[C@H](CO)NC(=O)[C@@H](NC(=O)[C@H](Cc1ccccc1)NC(=O)[C@@H](NC(=O)CNC(=O)[C@H](CC(=O)O)NC(=O)C(C)(C)NC(=O)[C@@H](N)Cc1c[nH]cn1)[C@@H](C)O)[C@@H](C)O)C(=O)N[C@@H](CC(C)C)C(=O)N[C@@H](CCC(N)=O)C(=O)NCC(=O)N[C@@H](CC(C)C)C(=O)N[C@H](C(=O)NCC(=O)N[C@@H](CCCCNC(=O)COCCOCCNC(=O)COCCOCCNC(=O)CC[C@H](NC(=O)CCCCCCCCCCCCCCCCC(=O)O)C(=O)O)C(N)=O)C(C)C,,cAMP reporter gene,"CRE-Luc mice, pancreas homogenate ex vivo","sc, 300 nmol/kg, 6 h, highest dose",relative to: baseline,luciferase induction,20 fold
C=CC(=O)Nc1cccc(Cn2ncc3cnc(Nc4cnn(CCOC)c4)nc32)c1,human FLT3(ITD),KINOMEscan,,100 nM,relative to: control,binding,38%
Cc1cccc(C)c1CNc1cc(C(=O)N2CCC2)cn2c(C)c(C)nc12,,esophageal lesions,rat reflux esophagitis model,"oral, 0.25 mg/kg",,inhibition,16.3%
COc1ccc(C(=O)CCc2cc(C(CCc3ccc(O)cc3OC)c3ccc(O)cc3)c(O)cc2OC)cc1 (racemic),,,human blood,"30 µM, added: A23187",,12-HETE level,10100 ± 4370 pg/mL
COc1ccc2c(c1)CN(C(=O)CCN1CCC(Cc3ccccc3)CC1)CCS2,,,human,"oral, dose not given",,time to sinus rhythm conversion,80 min
COc1cc(C2CC(Nc3ccc(-c4ccc(NC5=NN(C(C)=O)C(c6ccc(O)c(OC)c6)C5)cc4)cc3)=NN2C(C)=O)ccc1O (stereo not shown),,carrageenan paw oedema,albino rat,"oral, 50 mg/kg, 3 h",,inhibition,38.2%
COc1cc2c(NC3CCN(C(C)C)CC3)cc(N3CCOCC3)nc2cc1OCCCN1CCCC1,,"TMT proteomics, item: SMOC1","5xFAD mice, hippocampus",dose not given,relative to: untreated 5xFAD mice,log2 fold change,-0.124
CCC(=O)N[C@@H](C)C(=O)OCC(=O)N[C@@H](C)C(=O)O,,,water,"pH 8, 37 °C",,chain scission rate constant,0.029 h⁻¹
Cc1noc(-c2ccc(C=NOCc3ccc4nc(-c5ccccc5)c(Nc5ccc(C(=O)O)cc5)n4c3)cc2)n1,TDP1,"enzyme activity, inhibitor",,"100 µM, unpurified compound",,inhibition,113%
O=C(OCc1cccc(O)c1O)c1ccc(O)c(CO)c1,,,"C57BL/6J mice, wild type","dose not given, day 0, aneurysm hypertension model, added: angiotensin II 0.8 mg/kg/d for 14 d",,body weight,32.1 ± 2.1 g
Cc1ncsc1-c1ccc(C(C)NC(=O)C2CC(O)CN2C(=O)C(NC(=O)CCCCCCCCCCN2CCCC(Nc3ncc(Cl)c(Nc4ccccc4S(=O)(=O)C(C)C)n3)C2)C(C)(C)C)cc1 (stereo not shown),22Rv1,"RNA-seq, item: ZSWIM9 mRNA",,concentration not given,relative to: DMSO,log2 fold change,-3.18
OCC1OC(n2cnc3c(NCc4ccc(Br)s4)ncnc32)C(O)C1O (stereo not shown),,Seahorse,"slices, C57BL/6 mouse brain",acute exposure,,basal respiration,no effect
CS(=O)(=O)C(C=NOCc1ccc2nc(-c3ccccc3)c(Nc3ccc(C(=O)O)cc3)n2c1)c1nc2ccccc2[nH]1 (stereo not shown),TDP1,"enzyme activity, inhibitor",,"100 µM, unpurified compound",,inhibition,5.5%
COCCOCCOCCNC(=O)Cc1cc(CC(=O)N[C@H]2C[C@H]3C(=O)Nc4cc(OCCOCCOCCOC)cc(n4)C(=O)N4CCC[C@H]4C(=O)Nc4cc(OCCOCCOCCOC)cc(n4)C(=O)N4CCC[C@H]4C(=O)Nc4cc(OCCOCCOCCOC)cc(n4)C(=O)N3C2)cc(CC(=O)N[C@H]2C[C@H]3C(=O)Nc4cc(OCCOCCOCCOC)cc(n4)C(=O)N4CCC[C@H]4C(=O)Nc4cc(OCCOCCOCCOC)cc(n4)C(=O)N4CCC[C@H]4C(=O)Nc4cc(OCCOCCOCCOC)cc(n4)C(=O)N3C2)c1,,"anion binding, ITC",water/acetonitrile 95 vol% (98.2 mol%),"298 K, added: sodium iodide",,TΔS,3.68 ± 0.0956 kcal/mol
CCCCCc1ccc(S(=O)(=O)N2CC2C(=O)OC)cc1 (stereo not shown),,,"mouse, Lewis lung carcinoma","intraperitoneal, 5 mg/kg, 16 doses, day 12",,tumour volume,281 mm3
CC[C@H](C)[C@@H](C(=O)N[C@@H](CC(C)C)C(=O)N[C@@H](CO)C(=O)N[C@@H](CO)C(=O)N[C@H](C(=O)N[C@@H](CCC(=O)O)C(=O)N[C@H](C(=O)NCC(=O)N[C@@H](CO)C(=O)N[C@@H](CO)C(=O)N[C@H](C(=O)N1CCC[C@H]1C(N)=O)[C@@H](C)O)C(C)C)[C@@H](C)O)N(C)C(=O)[C@H](C)NC(=O)CN(C)C(=O)[C@H](Cc1ccccc1)NC(=O)[C@H](CO)NC(=O)[C@H](CO)NC(=O)[C@H](CCCNC(=N)N)NC(=O)[C@H](CCC(N)=O)NC(=O)[C@H](CC(C)C)NC(=O)[C@H](Cc1ccccc1)NC(=O)[C@H](Cc1c[nH]cn1)NC(=O)[C@H](C)NC(=O)[C@H](CC(C)C)NC(=O)[C@H](CCCNC(=N)N)NC(=O)[C@H](CCC(=O)O)NC(=O)[C@@H](NC(=O)[C@H](C)NC(=O)[C@@H]1CSSC[C@H](NC(=O)[C@H](CCCNC(=N)N)NC(=O)CC[C@H](NC(=O)CCCCCCCCCCCCCCCCCCC(=O)O)C(=O)O)C(=O)NCC(=O)N[C@@H]([C@@H](C)O)C(=O)N[C@@H](C)C(=O)N[C@@H]([C@@H](C)O)C(=O)N1)[C@@H](C)O,,,male Sprague-Dawley rats,"subcutaneous, 30 nmol/kg single dose, 24 h",relative to: vehicle,food intake,69.8 ± 2.8%
COC1CN([C@H]2CC[C@H]([C@@]3(C)Oc4c(Cl)cc(C(=O)NCc5c(SC)cc(C)[nH]c5=O)c(C)c4O3)CC2)C1,,"RNA-seq, item: SPP1 mouse homolog","mouse, HT-1376 xenograft, whole blood",dose not given,relative to: vehicle,log2 fold change,0.503

# For quick reference, copied from above:
SMILES,tested on,assay,system,setting,how to read,quantity,result
CC(C)OC(=O)[C@H](CO)NCc1cc(Cl)c(OCc2cccc(-c3ccccc3)c2Br)cc1OCc1cccnc1,,,"hPD-L1 MC-38 tumour, humanised hPD-1 C57BL/6 mouse","oral, 2.5 mg/kg × 21, day 1, baseline",,tumour volume,116 ± 18.1 mm³
COc1ccc(C(=O)CCc2cc(C(CCc3ccc(O)cc3OC)c3ccc(O)cc3)c(O)cc2OC)cc1 (racemic),,,human blood,"30 µM, added: A23187",,12-HETE level,10100 ± 4370 pg/mL
